Published values of several laboratories.
Every numbered part comes from another study and shows a few of its results, in no order. Positions count from the first letter of the parent shown.
UniProt Q8RYC6, sequence (whole entry, looked up): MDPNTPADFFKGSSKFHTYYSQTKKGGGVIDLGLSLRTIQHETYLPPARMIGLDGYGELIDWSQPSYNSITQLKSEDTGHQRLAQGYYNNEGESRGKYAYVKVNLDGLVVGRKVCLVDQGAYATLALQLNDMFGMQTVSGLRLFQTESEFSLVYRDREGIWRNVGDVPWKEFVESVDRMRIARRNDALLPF
UniProt Q9SKN5, sequence (whole entry, looked up): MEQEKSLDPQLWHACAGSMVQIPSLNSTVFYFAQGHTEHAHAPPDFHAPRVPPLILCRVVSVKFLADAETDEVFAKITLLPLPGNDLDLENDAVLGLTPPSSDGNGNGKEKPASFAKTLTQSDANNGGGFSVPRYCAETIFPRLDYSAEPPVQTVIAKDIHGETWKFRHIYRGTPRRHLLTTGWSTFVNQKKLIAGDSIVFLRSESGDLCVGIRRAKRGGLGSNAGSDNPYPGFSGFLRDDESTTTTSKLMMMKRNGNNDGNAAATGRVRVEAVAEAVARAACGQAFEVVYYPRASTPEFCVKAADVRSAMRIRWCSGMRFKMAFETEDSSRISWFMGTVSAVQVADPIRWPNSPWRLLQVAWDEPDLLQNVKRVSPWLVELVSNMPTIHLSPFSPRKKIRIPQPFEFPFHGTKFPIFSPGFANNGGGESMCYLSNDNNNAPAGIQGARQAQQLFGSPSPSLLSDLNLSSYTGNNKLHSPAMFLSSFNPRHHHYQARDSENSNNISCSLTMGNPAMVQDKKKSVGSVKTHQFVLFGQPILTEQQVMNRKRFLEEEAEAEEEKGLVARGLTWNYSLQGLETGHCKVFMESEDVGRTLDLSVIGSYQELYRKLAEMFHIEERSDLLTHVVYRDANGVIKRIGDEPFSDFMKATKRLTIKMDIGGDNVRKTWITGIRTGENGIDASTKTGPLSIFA
UniProt O24410, sequence (whole entry, looked up): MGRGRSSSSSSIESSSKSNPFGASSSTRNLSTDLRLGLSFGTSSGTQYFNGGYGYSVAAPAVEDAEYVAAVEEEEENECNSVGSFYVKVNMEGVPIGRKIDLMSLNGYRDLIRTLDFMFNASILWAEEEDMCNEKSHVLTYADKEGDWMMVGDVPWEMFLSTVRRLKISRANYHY
UniProt O24408, sequence (whole entry, looked up): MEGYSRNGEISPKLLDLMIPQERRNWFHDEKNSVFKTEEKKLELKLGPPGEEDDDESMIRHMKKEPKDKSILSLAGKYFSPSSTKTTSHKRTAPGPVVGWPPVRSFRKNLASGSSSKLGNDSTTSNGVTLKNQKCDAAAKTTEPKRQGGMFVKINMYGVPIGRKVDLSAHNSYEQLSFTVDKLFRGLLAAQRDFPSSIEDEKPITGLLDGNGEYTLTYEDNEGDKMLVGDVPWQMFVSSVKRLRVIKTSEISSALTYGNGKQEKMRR
UniProt Q9ZPY6, sequence (whole entry, looked up): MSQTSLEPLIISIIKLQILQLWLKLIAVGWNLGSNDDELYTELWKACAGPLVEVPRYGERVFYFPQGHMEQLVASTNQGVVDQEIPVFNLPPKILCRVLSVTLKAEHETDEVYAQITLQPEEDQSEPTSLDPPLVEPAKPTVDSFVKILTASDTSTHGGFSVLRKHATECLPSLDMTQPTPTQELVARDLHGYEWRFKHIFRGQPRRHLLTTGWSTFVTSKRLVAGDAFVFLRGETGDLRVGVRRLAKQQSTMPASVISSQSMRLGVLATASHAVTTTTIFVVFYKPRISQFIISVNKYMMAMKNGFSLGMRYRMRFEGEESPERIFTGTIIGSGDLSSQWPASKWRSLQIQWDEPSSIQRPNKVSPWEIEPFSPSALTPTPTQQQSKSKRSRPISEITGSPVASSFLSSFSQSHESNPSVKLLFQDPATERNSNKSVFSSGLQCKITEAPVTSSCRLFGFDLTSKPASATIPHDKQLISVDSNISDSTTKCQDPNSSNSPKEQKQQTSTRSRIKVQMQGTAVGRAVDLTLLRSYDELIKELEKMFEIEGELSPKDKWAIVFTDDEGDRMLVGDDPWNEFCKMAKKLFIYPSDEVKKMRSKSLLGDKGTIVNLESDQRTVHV

Set 1 — Molecule: B1 (IAA16); technique: two-hybrid; direction: higher = firmer interaction
B1: IAA16 (Arabidopsis thaliana, UniProt O24407); chain MINFEATELRLGLPGGNHGGEMAGKNNGKRGFSETVDLKLNLSSTAMDSVSKVDLENMKEKVVKPPAKAQVVGWPPVRSFRKNVMSGQKPTTGDATEGNDKTSGSSGATSSASACATVAYVKVSMDGAPYLRKIDLKLYKTYQDLSNALSKMFSSFTIGNYGPQGMKDFMNESKLIDLLNGSDYVPTYEDKDGDWMLVGDVPWEMFVDSCKRIRIMKGSEAIGLAPRALEKCKNRS
The positive tests was 2 (IAA32 (Arabidopsis thaliana, UniProt Q8RYC6); reference: out of 4 tests).
ARF11 500-622 (Arabidopsis thaliana, UniProt Q9ZPY6); reference: out of 4 tests — positive tests: 0.
ARF10 575-693 (Arabidopsis thaliana, UniProt Q9SKN5); reference: out of 4 tests — positive tests: 0.
It gave 2 for positive tests (IAA18 (Arabidopsis thaliana, UniProt O24408); reference: out of 4 tests).
For IAA20 (Arabidopsis thaliana, UniProt O24410); weak activation fusion; reference: out of 2 tests: positive tests read 0.

Set 2 — target: DDIT3, bZIP domain (human); technique: DHFR protein complementation; matrix: yeast; reference: wild-type JUN-FOS pair; direction: higher = stronger binding
Setting: single substitutions, most at no-binding floor
Starting sequence: JUN, bZIP domain (human); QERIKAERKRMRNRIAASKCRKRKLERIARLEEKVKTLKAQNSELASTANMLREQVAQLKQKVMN; partner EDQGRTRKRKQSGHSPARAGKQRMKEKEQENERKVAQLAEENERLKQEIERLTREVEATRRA
For `K39P`, the binding fitness was -1.19 natural log.
`L31V` has a binding fitness of -0.442 natural log.
`A46N` has a binding fitness of 0.0975 natural log.
`L52E` gave a binding fitness of -0.967 natural log.
The binding fitness of `E54A` is reported as -0.0535 natural log.
`A49N` gave a binding fitness of -0.951 natural log.
The binding fitness of `E54P` is reported as -1.19 natural log.
`E33M` gave a binding fitness of -0.05 natural log.

Set 3 — technique: universal PBM; form: double-stranded DNA, one strand shown; matrix: in vitro; tested at: 600 nM; direction: higher = stronger binding
Target: Sal-like protein 4, full length isoform A (SALL4, Homo sapiens, UniProt Q9UJQ4, residues 1-1053)
UniProt Q9UJQ4, sequence (whole entry, looked up): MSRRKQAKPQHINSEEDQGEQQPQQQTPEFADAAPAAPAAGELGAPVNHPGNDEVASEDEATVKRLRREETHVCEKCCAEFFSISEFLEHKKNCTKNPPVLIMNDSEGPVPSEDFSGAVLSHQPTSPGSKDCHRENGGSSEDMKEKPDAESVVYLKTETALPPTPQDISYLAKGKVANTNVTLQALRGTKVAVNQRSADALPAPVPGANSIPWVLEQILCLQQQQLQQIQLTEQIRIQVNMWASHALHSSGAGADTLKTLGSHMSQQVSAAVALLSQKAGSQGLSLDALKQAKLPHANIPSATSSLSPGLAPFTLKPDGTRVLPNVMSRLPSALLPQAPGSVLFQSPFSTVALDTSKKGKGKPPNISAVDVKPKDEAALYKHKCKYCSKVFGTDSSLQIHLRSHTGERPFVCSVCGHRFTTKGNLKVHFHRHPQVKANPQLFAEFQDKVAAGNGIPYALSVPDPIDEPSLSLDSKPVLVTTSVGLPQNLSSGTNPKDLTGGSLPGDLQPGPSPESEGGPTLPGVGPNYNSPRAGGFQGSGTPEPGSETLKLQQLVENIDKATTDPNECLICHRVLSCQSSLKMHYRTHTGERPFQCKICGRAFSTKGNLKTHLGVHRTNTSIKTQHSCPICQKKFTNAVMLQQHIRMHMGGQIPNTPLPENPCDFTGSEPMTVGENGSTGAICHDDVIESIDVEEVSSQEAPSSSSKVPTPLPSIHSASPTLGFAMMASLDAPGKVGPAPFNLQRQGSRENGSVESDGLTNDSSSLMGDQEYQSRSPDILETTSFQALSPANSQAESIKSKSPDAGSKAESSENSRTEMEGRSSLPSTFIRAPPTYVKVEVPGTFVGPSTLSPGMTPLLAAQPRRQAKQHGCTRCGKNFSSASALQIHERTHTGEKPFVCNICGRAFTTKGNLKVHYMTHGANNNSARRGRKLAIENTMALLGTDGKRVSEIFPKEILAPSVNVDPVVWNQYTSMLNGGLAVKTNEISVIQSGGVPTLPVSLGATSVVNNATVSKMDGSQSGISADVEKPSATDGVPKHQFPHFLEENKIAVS
Setting: 8-mer, flanks averaged, mean of replicates
`AGAGAATG` gave an E-score of 0.0538.
The E-score of `AGTCGCTC` is reported as -0.135.
For `GTTTATGA`, the E-score was 0.366.
The E-score of `ATCGCGAA` is reported as -0.0532.
`GATTCTCC` gave an E-score of -0.194.
With `AATCAGGG` the E-score was -0.0881.
`TGCAGTAA` gave an E-score of 0.0738.
The E-score of `AGCTGCAA` is reported as -0.0424.

Single results of other studies
The remaining compound of `Cc1nc[nH]c1-c1nccn1[C@H]1CCc2ccccc21` is reported as 78.1% (human, microsomes or S9; 2 µM, 0.5 h).

For quick reference, copied from above (set 3):
`AGAGAATG` gave an E-score of 0.0538.
